Published values collected from several papers.
Several values in a cell are separate wells, animals, samples, runs or records. ± marks the error that the study gave.
ABCG2: Broad substrate specificity ATP-binding cassette transporter ABCG2 (ABCG2, Homo sapiens, UniProt Q9UNQ0)
Sequence of UniProt Q9UNQ0 (whole entry, looked up): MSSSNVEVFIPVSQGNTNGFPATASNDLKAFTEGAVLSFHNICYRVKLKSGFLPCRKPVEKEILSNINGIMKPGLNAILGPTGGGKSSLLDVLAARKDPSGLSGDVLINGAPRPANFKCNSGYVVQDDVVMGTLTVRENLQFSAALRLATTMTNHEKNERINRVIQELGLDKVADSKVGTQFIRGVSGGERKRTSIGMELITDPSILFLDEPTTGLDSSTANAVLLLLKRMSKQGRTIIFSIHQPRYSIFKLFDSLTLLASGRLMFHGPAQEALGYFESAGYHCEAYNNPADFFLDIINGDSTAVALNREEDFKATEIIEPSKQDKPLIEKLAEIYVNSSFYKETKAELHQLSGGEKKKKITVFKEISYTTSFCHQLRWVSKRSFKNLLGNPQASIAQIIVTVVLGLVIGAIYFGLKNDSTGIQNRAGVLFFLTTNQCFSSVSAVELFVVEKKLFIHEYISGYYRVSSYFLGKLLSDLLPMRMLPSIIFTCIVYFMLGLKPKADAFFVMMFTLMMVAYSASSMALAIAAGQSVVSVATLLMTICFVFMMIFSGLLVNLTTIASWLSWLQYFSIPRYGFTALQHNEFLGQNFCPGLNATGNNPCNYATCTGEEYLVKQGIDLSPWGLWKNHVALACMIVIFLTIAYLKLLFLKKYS
Sequence of UniProt P10635 (whole entry, looked up): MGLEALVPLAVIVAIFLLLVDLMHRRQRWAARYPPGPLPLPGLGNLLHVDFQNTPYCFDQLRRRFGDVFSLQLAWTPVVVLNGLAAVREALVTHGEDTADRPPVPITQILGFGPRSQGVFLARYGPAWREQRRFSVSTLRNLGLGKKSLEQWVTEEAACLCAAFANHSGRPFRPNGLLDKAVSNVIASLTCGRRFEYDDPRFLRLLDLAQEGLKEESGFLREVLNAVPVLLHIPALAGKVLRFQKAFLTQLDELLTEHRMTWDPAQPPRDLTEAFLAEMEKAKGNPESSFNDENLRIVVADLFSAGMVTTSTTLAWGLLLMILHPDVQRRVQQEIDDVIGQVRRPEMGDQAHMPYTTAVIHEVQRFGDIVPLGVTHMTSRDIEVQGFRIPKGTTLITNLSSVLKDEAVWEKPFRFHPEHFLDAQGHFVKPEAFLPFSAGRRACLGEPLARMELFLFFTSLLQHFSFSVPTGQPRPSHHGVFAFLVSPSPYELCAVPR
Sequence of UniProt Q9NPD5 (whole entry, looked up): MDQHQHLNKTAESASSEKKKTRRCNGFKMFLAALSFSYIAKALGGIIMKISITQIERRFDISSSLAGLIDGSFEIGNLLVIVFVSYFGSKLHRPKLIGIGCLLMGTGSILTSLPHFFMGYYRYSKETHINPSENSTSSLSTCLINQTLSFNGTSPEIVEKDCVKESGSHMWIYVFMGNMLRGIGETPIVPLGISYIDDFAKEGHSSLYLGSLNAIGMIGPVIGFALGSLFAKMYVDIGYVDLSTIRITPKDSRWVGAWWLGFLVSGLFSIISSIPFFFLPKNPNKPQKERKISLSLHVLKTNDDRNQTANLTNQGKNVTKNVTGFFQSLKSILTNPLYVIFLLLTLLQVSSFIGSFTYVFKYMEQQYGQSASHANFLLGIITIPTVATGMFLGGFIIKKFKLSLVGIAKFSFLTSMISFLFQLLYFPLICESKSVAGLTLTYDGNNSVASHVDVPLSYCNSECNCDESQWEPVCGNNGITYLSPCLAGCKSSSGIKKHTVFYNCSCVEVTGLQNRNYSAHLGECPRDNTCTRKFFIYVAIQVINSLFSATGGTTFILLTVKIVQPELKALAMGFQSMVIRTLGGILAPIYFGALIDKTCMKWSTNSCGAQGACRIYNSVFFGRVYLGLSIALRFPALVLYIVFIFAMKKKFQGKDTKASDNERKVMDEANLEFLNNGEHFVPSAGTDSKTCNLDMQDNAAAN
Sequence of UniProt P16234 (whole entry, unmodified, looked up): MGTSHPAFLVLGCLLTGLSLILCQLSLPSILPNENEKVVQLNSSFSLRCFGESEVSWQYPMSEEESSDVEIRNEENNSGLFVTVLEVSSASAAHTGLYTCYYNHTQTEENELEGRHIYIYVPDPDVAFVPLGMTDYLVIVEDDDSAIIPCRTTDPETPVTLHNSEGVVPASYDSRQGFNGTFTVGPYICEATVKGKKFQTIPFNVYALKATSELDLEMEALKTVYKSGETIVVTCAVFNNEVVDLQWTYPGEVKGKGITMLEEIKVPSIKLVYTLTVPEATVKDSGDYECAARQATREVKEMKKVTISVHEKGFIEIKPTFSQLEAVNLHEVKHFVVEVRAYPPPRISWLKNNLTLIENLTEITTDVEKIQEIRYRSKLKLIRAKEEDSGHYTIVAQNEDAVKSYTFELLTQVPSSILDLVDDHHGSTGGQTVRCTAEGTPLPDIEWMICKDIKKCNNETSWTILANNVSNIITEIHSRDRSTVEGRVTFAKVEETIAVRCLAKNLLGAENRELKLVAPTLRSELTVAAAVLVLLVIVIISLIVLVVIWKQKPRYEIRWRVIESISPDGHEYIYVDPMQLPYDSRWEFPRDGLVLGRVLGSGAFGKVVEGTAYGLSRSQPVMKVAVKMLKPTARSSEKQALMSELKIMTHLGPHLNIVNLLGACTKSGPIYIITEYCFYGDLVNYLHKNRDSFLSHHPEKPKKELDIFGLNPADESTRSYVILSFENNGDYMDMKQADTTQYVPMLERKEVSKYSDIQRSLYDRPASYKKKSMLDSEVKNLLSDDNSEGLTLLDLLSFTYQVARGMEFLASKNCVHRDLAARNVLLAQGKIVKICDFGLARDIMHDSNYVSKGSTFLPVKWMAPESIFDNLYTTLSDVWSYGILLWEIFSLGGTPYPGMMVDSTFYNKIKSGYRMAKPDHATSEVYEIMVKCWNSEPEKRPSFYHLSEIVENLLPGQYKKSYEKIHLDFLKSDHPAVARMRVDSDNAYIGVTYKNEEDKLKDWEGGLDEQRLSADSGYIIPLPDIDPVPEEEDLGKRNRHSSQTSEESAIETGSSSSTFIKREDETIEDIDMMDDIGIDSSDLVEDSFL

| Compound | target or system | assay | test system | conditions | how to read | endpoint | result |
| --- | --- | --- | --- | --- | --- | --- | --- |
| CCCC[C@H](NC(=O)CCCCCCCNC(=O)CN1CCN(CC(=O)O)CCN(CC(=O)O)CC1)C(=O)N[C@H]1CC(=O)NCCCC[C@@H](C(N)=O)NC(=O)[C@H](Cc2c[nH]c3ccccc23)NC(=O)[C@H](CCCNC(=N)N)NC(=O)[C@@H](Cc2ccccc2)NC(=O)[C@H](Cc2c[nH]cn2)NC1=O [technetium-99m labelled] | – | – | C57 mouse, skin | intravenous, 0.037 MBq, 0.5 h | – | tissue uptake | 1.48 ± 0.09 %ID/g |
| N#Cc1cccc(-c2ccc(=O)n(Cc3cccc(-c4ncc(OCC5CCN(CC(=O)N6CCN(c7ccc8c(c7)C(=O)N(C7CCC(=O)NC7=O)C8=O)CC6)CC5)cn4)c3)n2)c1 (stereo not shown) | Caco-2 | transwell monolayer | – | 2 µM, 120 min, pH 7.4, 0.1% DMSO | – | efflux ratio | 12.8 |
| CNc1nc(N)nc2c1ncn2[C@@H]1O[C@H](CO)[C@@H](O)[C@@]1(C)F | ABCG2 | bidirectional transport | MDCKII transfected with human BCRP | 10 µM, with: Ko143 1 µM | – | Papp B to A | 8.65 ± 0.43 ×10⁻⁶ cm/s |
| CC(C)OCCOCc1ccc(OCC(O)CN(N=O)C(C)C)cc1 (stereo not shown) | Salmonella typhimurium | Ames test | TA100 | 5000 µg/plate, without metabolic activation | relative to: solvent control | revertant fold increase | 0.6 fold |
| N#C[C@@H]1CC(F)(F)CN1C(=O)CNC(=O)c1ccnc2c(NC(=O)[C@H](CCCCNC(=O)CCOCCOCCOCCOCCOCCOCCNC(=O)CN3CCN(CC(=O)[O-])CCN(CC(=O)[O-])CCN(CC(=O)[O-])CC3)NC(=O)CCCc3ccc(I)cc3)cccc12.[177Lu+3] | U-87 MG tumour model | – | host not given, blood | 48 h, tumour-bearing | – | tracer uptake | 0.33 %ID/g |
| Cc1nn(-c2cccc(N)c2)c(=O)c2cnc(Nc3ccc(N4CCNCC4)cc3)nc12 | PDGFRA (Homo sapiens, UniProt P16234, T674I) | enzyme activity, inhibitor | – | – | – | IC50 | > 10 µM |
| O=C1c2sc(-c3ccc(N4CCC(F)C4)nc3F)nc2CCN1c1cccnc1 (stereo not shown) | – | HPLC | rhesus monkey, plasma | intravenous, 119.68 min | – | parent fraction | 0.0829 |
| CNc1nc(N)nc2c1ncn2[C@@H]1O[C@H](CO[P@](=O)(O)N[C@@H](C)C(=O)O)[C@@H](O)[C@@]1(C)F | ABCG2 | bidirectional transport | MDCKII transfected with human BCRP | 10 µM | – | efflux ratio | 1.02 ± 0.12 |
| N#C[C@@H]1CC(F)(F)CN1C(=O)CNC(=O)c1ccnc2c(NC(=O)CCOCCOCCOCCOCCOCCOCCNC(=O)[C@H](CCCCNC(=O)CN3CCN(CC(=O)[O-])CCN(CC(=O)[O-])CCN(CC(=O)[O-])CC3)NC(=O)CCCc3ccc(I)cc3)cccc12.[177Lu+3] | U-87 MG tumour model | – | host not given, muscle | 1 h, tumour-bearing | – | tracer uptake | 1.54 %ID/g |
| CNC(=O)C1CCCN(C(=O)C2CC3CCC2N3C(=O)[C@@H]2C[C@@H](O)CN2C(=O)NCc2cccc(Cl)c2F)C1 (mixture of isomers) | Cytochrome P450 2D6 (CYP2D6, Homo sapiens, UniProt P10635) | enzyme activity, inhibitor, time-dependent inhibition | – | 0.206 µM, preincubated without NADPH | relative to: negative control | remaining activity | 99.3% |
| C=C(NC(=O)c1csc(-c2nc3c(cc2O)-c2nc(cs2)C(=O)NC(C(C)O)C(=O)NC(=C(C)OC)c2nc(cs2)C(=O)NC2c4nc(cs4)C(=O)NC(COC(=O)c4c5c6c(cccc6n4O)COC(=O)C(OC4CC(C)(O)C(N(C)C)C(C)O4)C2OC5)c2nc-3cs2)n1)C(N)=O (stereo not shown) | – | – | cynomolgus monkey, plasma | intravenous, 1 mg/kg, single dose, infusion | – | Tmax | 0.07 h |
| O=C(Nc1cnccc1-c1ccc([18F])nc1)c1ccnc(NC(=O)C2CC2)c1 | – | – | mice, transgenic, GSK-3β, early-stage, muscle | intravenous, dose not given, 120 min | – | SUV | 0.359 |
| COc1cccc(OC)c1-c1cc(C(=O)NC2(C(=O)O)C3CC4CC(C3)CC2C4)nn1-c1ccc(C(=O)N(C)CCCN(C)CCCN(C)C(=O)[C@H](CCCCNC(=O)[C@H](CC(C)C)NC(=O)C2OC2C(=O)O)NC(=O)CN2CCN(CC(=O)[O-])CCN(CC(=O)[O-])CCN(CC(=O)[O-])CC2)cc1C(C)C.[177Lu+3] (mixture of isomers) | HT-29 tumour model | – | host not given, pancreas | 7 days, tumour-bearing | – | tracer uptake | 0.17 %ID/g |
| CCCCCC(=O)N[C@@H](Cc1ccc(N)cc1)C(=O)N[C@@H](CCCC)C(=O)N[C@@H](CC(C)C)C(=O)[C@@]1(C)CO1 | Trypanosoma brucei brucei | – | HepG2 cells, Lister 427 | – | relative to: HepG2 CC50 over T. brucei EC50 | selectivity index | < 1 |
| CCCC[C@H](NC(=O)COCCOCCNC(=O)CN1CCN(CC(=O)O)CCN(CC(=O)O)CC1)C(=O)N[C@H]1CC(=O)NCCCC[C@@H](C(N)=O)NC(=O)[C@H](Cc2c[nH]c3ccccc23)NC(=O)[C@H](CCCNC(=N)N)NC(=O)[C@@H](Cc2ccccc2)NC(=O)[C@H](Cc2c[nH]cn2)NC1=O [technetium-99m labelled] | – | – | C57 mouse, kidneys | intravenous, 0.037 MBq, 24 h | – | tissue uptake | 0.03 ± 0.01 %ID/g |
| C[n+]1ccc(/C=N/NC(=O)c2cccc(C(=O)N/N=C/c3cc[n+](C)c4ccccc34)n2)c2ccccc21 | MYC parallel G4 DNA | FRET melting | – | 1 µM, DNA 0.2 µM | – | ΔTm | 15.3 ± 0.4 °C |

| Compound | target or system | assay | test system | conditions | how to read | endpoint | result |
| --- | --- | --- | --- | --- | --- | --- | --- |
| CNS(=O)(=O)Nc1nccc(Cc2c(C)c3ccc(Oc4ncccc4F)cc3oc2=O)c1F | GA-10 | cell viability | – | 7 days | – | IC50 | > 1 µM |
| O=C1C2CC3CC1CC(C(=O)N1CCN(c4ccc([N+](=O)[O-])c5ncccc45)CC1)(C3)C2 | Salmonella typhimurium | Ames test | TA100 | 0.13 µg/well, without S9 | – | mean revertant colonies | 20 colonies/well |
| C[n+]1cc(/C=N/NC(=O)C(=O)N/N=C/c2cc3ccccc3[n+](C)c2)cc2ccccc21 | MYC parallel G4 DNA | FRET melting | – | 1 µM, DNA 0.2 µM, with: duplex DNA competitor 10 µM | – | ΔTm | 3.6 ± 0.3 °C |
| O=C(c1ccc(OCCN2CCCCC2)cc1)c1c(-c2ccc(O[C@@H]3O[C@H](C(=O)O)[C@@H](O)[C@H](O)[C@H]3O)cc2)sc2cc(O)ccc12 | SLCO1B3 (Homo sapiens, UniProt Q9NPD5) | – | liver | – | – | contribution to uptake | 80% |
| O=C1NC2(CC2)COc2ncc(F)cc2[C@H]2COCCN2c2ccn3ncc1c3n2 | Salmonella typhimurium | Ames test | TA102 | 50 µg/plate, 48 h, with: rat liver S9 | – | revertant colonies | 398 ± 44 revertants/plate |
| CN1CCCNC(=O)c2cccc(c2)C(=O)NCCCN(C)CCCNc2cccc3c2C(=O)c2cccc(c2C3=O)NCCC1 | NHEK | CCK-8 | – | 5 µM, 48 h | relative to: untreated | viability | 42.6% |
| COC1CN([C@H]2CC[C@H]([C@@]3(C)Oc4c(Cl)cc(C(=O)NCc5c(SC)cc(C)[nH]c5=O)c(C)c4O3)CC2)C1 | – | RNA-seq, item: PCGF5 | human, whole blood | dose not given, 24 h | relative to: pretreatment baseline | log2 fold change | 1.15 |
| C=C1CC[C@H](OCCCNC(=O)CCOCCOCCOCCOCCOCCOCCOCCOCCOCCOCCOCCOCCOCCOCCOCCOCCOCCOCCOCCOCCOCCOCCOCCOCCOCCOCCOCCOCCOCCOCCOCCOCCOCCOCCOCCOCCNC(=O)CCN2C(=O)CC(SC[C@H](NC(=O)[C@H](Cc3ccccc3)NC(=O)[C@H](CC(N)=O)NC(=O)[C@H](Cc3c[nH]cn3)NC(=O)[C@@H](NC(=O)[C@H](CC(=O)O)NC(=O)[C@H](CCC(N)=O)NC(=O)[C@H](CC(C)C)NC(=O)[C@H](CCCCN)NC(=O)[C@H](CCCCN)NC(=O)[C@H](CCCNC(=N)N)NC(=O)[C@H](CC(C)C)NC(=O)[C@H](Cc3c[nH]c4ccccc34)NC(=O)[C@H](CCC(=O)O)NC(=O)[C@@H](NC(=O)[C@H](CCCNC(=N)N)NC(=O)[C@H](CCC(=O)O)NC(=O)[C@H](CCSC)NC(=O)[C@H](CO)NC(=O)[C@H](CC(N)=O)NC(=O)[C@H](CC(C)C)NC(=O)[C@H](Cc3c[nH]cn3)NC(=O)[C@H](CCCCN)NC(=O)CNC(=O)[C@H](CC(C)C)NC(=O)[C@H](CC(N)=O)NC(=O)[C@H](Cc3c[nH]cn3)NC(=O)[C@H](CCSC)NC(=O)[C@H](CC(C)C)NC(=O)[C@H](CCC(N)=O)NC(=O)[C@@H](NC(=O)[C@H](CCC(=O)O)NC(=O)[C@H](CO)NC(=O)[C@@H](NC(=O)[C@@H](N)CO)C(C)C)[C@@H](C)CC)C(C)C)C(C)C)C(=O)O)C2=O)C/C1=C/C=C1\CCC[C@]2(C)[C@@H]([C@H](C)CCCC(C)(C)O)CC[C@@H]12 (stereo partly shown) | – | – | male cynomolgus monkey, plasma | subcutaneous, 0.07 mg/kg, single dose | – | Tmax | 6 h |
| C[C@@]1(F)[C@H](O)[C@@H](CO)O[C@H]1n1cnc2c(=O)[nH]c(N)nc21 | ABCG2 | bidirectional transport | MDCKII transfected with human BCRP | 10 µM | – | Papp A to B | 2.34 ± 0.25 ×10⁻⁶ cm/s |
| COc1cccc(OC)c1-c1cc(C(=O)NC2(C(=O)O)C3CC4CC(C3)CC2C4)nn1-c1ccc(C(=O)N(C)CCCN(C)C(=O)[C@H](CCCCNC(=O)[C@H](CC(C)C)NC(=O)C2OC2C(=O)O)NC(=O)CN2CCN(CC(=O)[O-])CCN(CC(=O)[O-])CCN(CC(=O)[O-])CC2)cc1C(C)C.[177Lu+3] (mixture of isomers) | HT-29 tumour model | – | host not given, blood | 4 h, tumour-bearing | – | tracer uptake | 1.04 %ID/g |
| CCCCCC(=O)N[C@@H](Cc1ccc(N)cc1)C(=O)N[C@@H](CCCC)C(=O)N[C@@H](Cc1ccccc1)C(=O)[C@@]1(C)CO1 | Trypanosoma brucei brucei | – | HepG2 cells, Lister 427 | – | relative to: HepG2 CC50 over T. brucei EC50 | selectivity index | 6 |
| CN(O)C(=O)CCC(=O)NCCCN(CCCCN(CCCNC(=O)CCC(=O)N(C)O)C(=O)CCC(=O)N(C)O)C(=O)CCC(=O)N(C)O.[89Zr] | TF (Homo sapiens, UniProt P02787) | transchelation challenge | – | concentration not given, 7 days, 37 °C, with: apo-transferrin 10 equiv | – | transferrin binding | 13 ± 0.4% |
| CC(C)Cc1ccc(C(C)C(=O)N[C@@H](CCCCNC(=O)CCOCCOCCOCCOCCOCCOCCNC(=O)CN2CCN(CC(=O)[O-])CCN(CC(=O)[O-])CCN(CC(=O)[O-])CC2)C(=O)Nc2cccc3c(C(=O)NCC(=O)N4CC(F)(F)C[C@H]4C#N)ccnc23)cc1.[177Lu+3] (stereo partly shown) | U-87 MG tumour model | – | host not given, liver | 48 h, tumour-bearing | – | tracer uptake | 2.42 %ID/g |
| N#C[C@@H]1CCCN1C(=O)CNC(=O)c1ccnc2ccc(OCCCN3CCN(C(=O)CCc4ccc(O)c(CN5CCN6CC(=O)[O][Al-]([18F])([O]C(=O)C5)[O]c5ccc(CCC(=O)N7CCN(CCCOc8ccc9nccc(C(=O)NCC(=O)N%10CCC[C@H]%10C#N)c9c8)CC7)cc5C6)c4)CC3)cc12 (stereo partly shown) | U-87 MG tumour model | – | host not given, bone | 1 h, tumour-bearing | – | tracer uptake | 10.2 %ID/g |
| CCN(CC)CC#CCNc1ccnc2cc(Cl)ccc12 | Salmonella typhimurium | mini-Ames test | TA98 | 250.0 µg/well, with rat liver S9 | – | revertants | 12 revertants/well and 14 revertants/well |

A few entries again:
| Compound | target or system | assay | test system | conditions | how to read | endpoint | result |
| --- | --- | --- | --- | --- | --- | --- | --- |
| CCCCCC(=O)N[C@@H](Cc1ccc(N)cc1)C(=O)N[C@@H](CCCC)C(=O)N[C@@H](CC(C)C)C(=O)[C@@]1(C)CO1 | Trypanosoma brucei brucei | – | HepG2 cells, Lister 427 | – | relative to: HepG2 CC50 over T. brucei EC50 | selectivity index | < 1 |
| COc1cccc(OC)c1-c1cc(C(=O)NC2(C(=O)O)C3CC4CC(C3)CC2C4)nn1-c1ccc(C(=O)N(C)CCCN(C)CCCN(C)C(=O)[C@H](CCCCNC(=O)[C@H](CC(C)C)NC(=O)C2OC2C(=O)O)NC(=O)CN2CCN(CC(=O)[O-])CCN(CC(=O)[O-])CCN(CC(=O)[O-])CC2)cc1C(C)C.[177Lu+3] (mixture of isomers) | HT-29 tumour model | – | host not given, pancreas | 7 days, tumour-bearing | – | tracer uptake | 0.17 %ID/g |
| CCN(CC)CC#CCNc1ccnc2cc(Cl)ccc12 | Salmonella typhimurium | mini-Ames test | TA98 | 250.0 µg/well, with rat liver S9 | – | revertants | 12 revertants/well and 14 revertants/well |
| CNS(=O)(=O)Nc1nccc(Cc2c(C)c3ccc(Oc4ncccc4F)cc3oc2=O)c1F | GA-10 | cell viability | – | 7 days | – | IC50 | > 1 µM |
| O=C1c2sc(-c3ccc(N4CCC(F)C4)nc3F)nc2CCN1c1cccnc1 (stereo not shown) | – | HPLC | rhesus monkey, plasma | intravenous, 119.68 min | – | parent fraction | 0.0829 |
